Published values from different studies.
Compare with care: the assays were run in different laboratories. “And” joins repeats or separate records; there may be more than shown. ± gives the spread as reported.
UniProt Q8TDC3, sequence (whole entry, looked up): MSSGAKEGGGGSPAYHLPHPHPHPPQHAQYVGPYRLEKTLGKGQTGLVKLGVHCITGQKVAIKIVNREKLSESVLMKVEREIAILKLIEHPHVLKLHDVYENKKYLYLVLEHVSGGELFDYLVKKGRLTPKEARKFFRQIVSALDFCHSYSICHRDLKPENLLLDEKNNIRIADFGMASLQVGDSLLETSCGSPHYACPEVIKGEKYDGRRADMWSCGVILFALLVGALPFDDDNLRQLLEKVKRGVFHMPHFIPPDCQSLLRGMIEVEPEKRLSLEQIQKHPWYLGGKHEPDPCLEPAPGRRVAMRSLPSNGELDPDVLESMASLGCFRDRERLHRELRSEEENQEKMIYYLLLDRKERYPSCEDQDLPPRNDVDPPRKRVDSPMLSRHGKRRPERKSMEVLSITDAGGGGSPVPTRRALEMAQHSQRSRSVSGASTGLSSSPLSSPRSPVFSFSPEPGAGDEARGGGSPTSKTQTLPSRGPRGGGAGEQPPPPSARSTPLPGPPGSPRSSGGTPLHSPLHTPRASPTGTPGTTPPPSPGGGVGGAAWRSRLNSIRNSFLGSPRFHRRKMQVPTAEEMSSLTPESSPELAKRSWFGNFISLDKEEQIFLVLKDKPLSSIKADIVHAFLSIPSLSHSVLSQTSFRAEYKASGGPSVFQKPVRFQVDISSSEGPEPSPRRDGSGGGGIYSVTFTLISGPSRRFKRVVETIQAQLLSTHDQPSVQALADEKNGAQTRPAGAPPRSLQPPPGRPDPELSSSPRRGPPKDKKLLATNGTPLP

SMILES	tested on	assay	system	setting	how to read	quantity	result
O=C1NC2(CC2)COc2ncc(F)cc2[C@H]2COCCN2c2ccn3ncc1c3n2			Sprague-Dawley rat, male, heart	oral, 5 mg/kg/day, 4 weeks dosing, end of recovery		organ-to-body weight ratio	0.299 ± 0.014%
CSCC[C@H](NC(=O)CNC(=O)[C@H](CCCCN)NC(=O)[C@H](CC(C)C)NC(=O)[C@@H]1CCCN1C(=O)[C@H](CO)NC(=O)[C@H](Cc1c[nH]cn1)NC(=O)[C@H](Cc1c[nH]c2ccccc12)NC(=O)[C@H](CCCNC(=N)N)NC(=O)[C@H](CC(C)C)NC(=O)[C@H](CCCNC(=N)N)NC(=O)[C@H](Cc1c[nH]c2ccccc12)NC(=O)[C@H](CS)NC(=O)CCCCCNC(=O)CN1CCN(CC(=O)O)CCN(CC(=O)O)CCN(CC(=O)O)CC1)C(=O)O [copper-64 labelled]			C57BL/6J mice, B16-F10 tumour	intravenous, 1.85 MBq, 18 h	reference: tumour over muscle	tumour-to-muscle ratio	9.94
CN1Cc2cc(Cl)ccc2-n2c(nnc2C2CCN(c3cccc([18F])n3)CC2)C1			C57BL/6 mouse male, urinary bladder	intravenous, 3.7 MBq, 1 min		tissue uptake	1.72 ± 0.38 %ID/g
CSCC[C@H](N)C(=O)N[C@@H](C)C(=O)N[C@@H](Cc1c[nH]c2ccccc12)C(=O)N[C@@H](Cc1c[nH]cn1)C(=O)N[C@@H](CC(=O)O)C(=O)N[C@@H](CC(=O)O)C(=O)N[C@@H](CCC(=O)O)C(=O)N[C@@H](CCC(=O)O)C(=O)N[C@@H](Cc1ccccc1)C(=O)N[C@@H](C)C(=O)N[C@@H](CCCNC(=N)N)C(=O)N[C@@H](CCCNC(=N)N)C(=O)N[C@@H](CCCNC(=N)N)C(=O)N[C@@H](CCCNC(=N)N)C(=O)NCCCCCC(=O)NCCCCC(NC(=O)CCCCCNC(=O)[C@H](CCCNC(=N)N)NC(=O)[C@H](CCCNC(=N)N)NC(=O)[C@H](CCCNC(=N)N)NC(=O)[C@H](CCCNC(=N)N)NC(=O)[C@H](C)NC(=O)[C@H](Cc1ccccc1)NC(=O)[C@H](CCC(=O)O)NC(=O)[C@H](CCC(=O)O)NC(=O)[C@H](CC(=O)O)NC(=O)[C@H](CC(=O)O)NC(=O)[C@H](Cc1c[nH]cn1)NC(=O)[C@H](Cc1c[nH]c2ccccc12)NC(=O)[C@H](C)NC(=O)[C@@H](N)CCSC)C(=O)NCCCCC(NC(=O)C(CCCCNC(=O)CCCCCNC(=O)[C@H](CCCNC(=N)N)NC(=O)[C@H](CCCNC(=N)N)NC(=O)[C@H](CCCNC(=N)N)NC(=O)[C@H](CCCNC(=N)N)NC(=O)[C@H](C)NC(=O)[C@H](Cc1ccccc1)NC(=O)[C@H](CCC(=O)O)NC(=O)[C@H](CCC(=O)O)NC(=O)[C@H](CC(=O)O)NC(=O)[C@H](CC(=O)O)NC(=O)[C@H](Cc1c[nH]cn1)NC(=O)[C@H](Cc1c[nH]c2ccccc12)NC(=O)[C@H](C)NC(=O)[C@@H](N)CCSC)NC(=O)CCCCCNC(=O)[C@H](CCCNC(=N)N)NC(=O)[C@H](CCCNC(=N)N)NC(=O)[C@H](CCCNC(=N)N)NC(=O)[C@H](CCCNC(=N)N)NC(=O)[C@H](C)NC(=O)[C@H](Cc1ccccc1)NC(=O)[C@H](CCC(=O)O)NC(=O)[C@H](CCC(=O)O)NC(=O)[C@H](CC(=O)O)NC(=O)[C@H](CC(=O)O)NC(=O)[C@H](Cc1c[nH]cn1)NC(=O)[C@H](Cc1c[nH]c2ccccc12)NC(=O)[C@H](C)NC(=O)[C@@H](N)CCSC)C(N)=O (some centres unmarked)			mouse C57BL/6 female, small intestine	6 h, radioiodinated peptide	reference: total radioactivity	tissue distribution	7.75% and 14.4% and 17%
C[C@@H]1COCCN1c1nc(NCc2cccnc2C(F)(F)F)c2cccnc2n1			human hepatocytes	donor		intrinsic clearance	1.7 µL/min/10⁶ cells
COc1ccccc1-c1n[nH]c2nc(NC3CCN(C(=O)Cc4ccc(F)cc4F)CC3)ncc12	Leishmania donovani CYCA (LINJ.25.1530)	bead binding competition	Leishmania donovani extract	10 µM	reference: vehicle	relative abundance	0.72
CC(C)[C@@H]1NC(=O)CNC(=O)[C@H](CC(N)=O)NC(=O)[C@H](CCCNC(=N)N)NC(=O)[C@H](Cc2ccc(O)cc2)NC(=O)[C@H](C(C)C)NC(=O)[C@@H](NC(=O)[C@@H](NC(=O)[C@H](CC(N)=O)NC(=O)[C@H](Cc2c[nH]c3ccccc23)NC(=O)[C@H](C)NC(=O)[C@H](Cc2ccccc2)NC(=O)CNC(=O)[C@H](CCCCN)NC(=O)[C@H](Cc2ccccc2)NC(=O)[C@H](Cc2ccccc2)NC(=O)[C@H](CCCCN)NC(=O)OCC2c3ccccc3-c3ccccc32)C(C)C)CSSC[C@@H](C(=O)N[C@@H](Cc2c[nH]cn2)C(=O)N[C@@H](CCCNC(=N)N)C(=O)N[C@@H](CCCNC(=N)N)C(=O)N[C@@H](C)C(=O)N[C@@H](CC(N)=O)C(N)=O)NC(=O)[C@H](C(C)C)NC(=O)[C@H](CCCNC(=N)N)NC1=O			ICR mouse, blood	intramammary, 10 mg/kg, day 5, 3 d dosing		ALT	45.9 ± 1.74 IU/L
Cc1ccccc1-c1ccc(-c2nc(-c3ccc(CN(C)CCCC(=O)O)c([18F])c3)no2)cc1C(F)(F)F			rat, liver	5 min		tracer uptake	3.65 %ID/g
CS(C)(=O)=Nc1ccc(-c2ccc(-c3nc4cc(O[C@@H]5CO[C@H]6[C@@H]5OC[C@H]6O)[nH]c4cc3F)cc2)cc1	BRSK1 (Homo sapiens, UniProt Q8TDC3)	enzyme activity, inhibitor		10 µM		inhibition	-12%
C/C(=N\OCCCN1CCCCC1)c1ccc(C(F)(F)F)cc1			C57BL/6 mouse, plasma	oral, 10 mg/kg, 0.5 h		plasma concentration	186 ± 6.56 ng/mL
C#Cc1c(F)ccc2cc(O)cc(-c3ncc4c(N5CC6CCC(C5)N6C(=O)OC(CCC)OC(=O)CCC)nc(OC[C@@]56CCCN5C[C@H](F)C6)nc4c3F)c12 (some centres unmarked)		chemical stability	simulated intestinal fluid	1 µM, 30 min		compound remaining	86.9%
CCCC[C@H]1C(=O)N(C)[C@@H](CCCC)C(=O)N[C@@H](CCCNC(=O)CN2CCN(CC(=O)O)CCN(CC(=O)O)CCN(CC(=O)O)CC2)C(=O)N[C@H](C(=O)NCC(N)=O)CSCC(=O)N[C@@H](Cc2ccc(O)cc2)C(=O)N(C)[C@@H](C)C(=O)N[C@@H](CC(N)=O)C(=O)N2CCC[C@H]2C(=O)N[C@@H](Cc2c[nH]cn2)C(=O)N[C@@H](CC(C)C)C(=O)N(C)CC(=O)N[C@@H](Cc2c[nH]c3ccccc23)C(=O)N[C@@H](CO)C(=O)N[C@@H](Cc2c[nH]c3ccccc23)C(=O)N1C [gallium-68 labelled]			NOD/SCID mice, CHO-hPD-L1 xenograft, muscle	60 min, with: blocking agent 50 µg co-injected		tissue uptake	2.16 ± 0.59 %ID/g
CSCC[C@@H]1NC(=O)[C@H](C(C)C)NC(=O)[C@H](CCCNC(=N)N)NC(=O)CNC(=O)[C@@H]2CCCN2C(=O)[C@@H](NC(=O)CNC(=O)[C@H](CO)NC(=O)CNC(=O)[C@H](CO)NC(=S)Nc2ccc(C[C@H]3CN(CC(=O)O)CCN(CC(=O)O)CCN3CC(=O)O)cc2)CSSC[C@@H](C(N)=O)NC(=O)[C@@H]2CCCN2C(=O)CNC(=O)[C@H](CCC(=O)O)NC(=O)[C@H](CC(=O)O)NC(=O)[C@H](CC(=O)O)NC(=O)CNC(=O)[C@H](CC(C)C)NC(=O)[C@H](Cc2c[nH]cn2)NC(=O)[C@H](CC(C)C)NC(=O)CNC(=O)[C@H](Cc2c[nH]cn2)NC1=O [copper-64 labelled]		dynamic PET	CD rat, myocardial infarction model, fibrotic infarct myocardium	intravenous, 18.5 MBq, 0 to 5 min		half-life	2.6 ± 0.2 min
CCOc1ccccc1-n1c(CN2CCNCC2)nc2ccccc2c1=O			C57BL/6 mouse, male, plasma	intravenous, 1 mg/kg		clearance	35.8 mL/min/kg
CC(=O)NCCCC[C@@H]1NC(=O)[C@H](Cc2c[nH]c3c(C)cccc23)NC(=O)[C@H]([C@@H](C)O)NC(=O)[C@H](CC(N)=O)NC(=O)[C@@H](NC(C)=O)C(C)(C)SSC(C)(C)[C@@H](C(=O)N[C@@H](Cc2ccc(OCCN)cc2)C(=O)N[C@@H](Cc2ccc3ccccc3c2)C(=O)NC2(C(=O)N[C@@H](CCC(=O)O)C(=O)N[C@@H](CC(N)=O)C(=O)N[C@@H](Cc3cccnc3)C(=O)N(C)CC(N)=O)CCOCC2)NC1=O		equilibrium dialysis	rat, plasma	0.01 µM		plasma protein binding	50.8 ± 3%
CC[C@H](C)[C@H](NC(=O)[C@H](CCCNC(=N)N)NC(=O)[C@H](CCCCN)NC(=O)[C@H](Cc1ccc(O)cc1)NC(=O)[C@H](CC(=O)O)NC(=O)[C@H](C)NC(=O)CNC(=O)CCOCCOCCOCCNC(=O)CN1CCN(CC(=O)O)CCN(CC(=O)O)CCN(CC(=O)O)CC1)C(=O)N[C@H](C(=O)N[C@@H](CC(C)C)C(=O)N[C@@H](CCCCN)C(=O)N[C@H](C(=O)N[C@@H](CC(N)=O)C(N)=O)C(C)C)[C@@H](C)O [copper-64 labelled]		ex vivo gamma counting	C57BL/6J male mice, B16-F10 tumour, thymus	intravenous, 1.85 MBq, 40 min		tissue uptake	0.66 ± 0.171 %ID/g
N#[11C]c1ccc(-c2csc(NN=C3CCCC3)n2)cc1			C57BL/6 mice, male, heart	intravenous, 3 MBq, 60 min		radioactivity uptake	1.12 ± 0.17 %ID/g
CC(C)C[C@@H](NC(=O)[C@@H](CCCNC(=N)N)NC(=O)[C@@H](Cc1c[nH]cn1)NC(=O)[C@@H](Cc1c[nH]c2ccccc12)NC(=O)[C@@H](Cc1c[nH]cn1)NC(=O)[C@@H](Cc1ccccc1)NC(=O)[C@H](NC(=O)[C@@H](Cc1ccc(O)cc1)NC(=O)CNC(=O)CNC(=O)CCOCCOCCOCCNC(=O)CN1CCN(CC(=O)O)CCN(CC(=O)O)CC1)[C@H](C)O)C(=O)N[C@H](CC(N)=O)C(=O)N1CCC[C@@H]1C(=O)O [gallium-68 labelled]			human female, from C57BL/6 mouse, total body			absorbed dose	0.0126 mSv/MBq
CC[C@H](C)[C@H](NC(=O)[C@H](CCCCN)NC(=O)CNC(=O)[C@H](CC(C)C)NC(=O)[C@H](Cc1ccccc1)NC(=O)[C@H](CCCCN)NC(=O)[C@H](CO)NC(=O)[C@H](Cc1ccccc1)NC(=O)[C@H](Cc1c[nH]c2ccccc12)NC(=O)[C@H](CCC(N)=O)NC(=O)[C@@H](NC(=O)[C@H](Cc1ccccc1)NC(=O)CCCCCNC(=O)CN1CCN(CC(=O)O)CCN(CC(=O)O)CCN(CC(=O)O)CC1)C(C)C)C(=O)N[C@@H](CCC(=O)O)C(=O)N1CCC[C@H]1C(=O)N[C@@H](CC(=O)O)C(=O)N[C@H](C(=O)N[C@@H](CO)C(=O)N[C@@H](CCC(N)=O)C(=O)N[C@H](C(=O)N[C@@H](CCC(N)=O)C(=O)N[C@@H](CC(=O)O)C(=O)N1CCC[C@H]1C(=O)N[C@@H](CC(N)=O)C(=O)N[C@@H](CC(=O)O)C(=O)N[C@@H](CCC(N)=O)C(=O)N[C@@H](Cc1ccc(O)cc1)C(=O)N[C@@H](CCC(=O)O)C(=O)N1CCC[C@H]1C(=O)N[C@@H](Cc1ccccc1)C(=O)O)C(C)C)C(C)C [copper-64 labelled]			C57BL/6 mice, male, tumour-free, stomach	0.5 h		tissue uptake	2.83 ± 0.9 %ID/g
CC(C)(C)C(=O)OCOP(=O)(OCOC(=O)C(C)(C)C)C1CCCN(O)C1=O (centres unmarked)	NCI-H322M					log TGI	-5.07 log M

Repeated from above:
SMILES	tested on	assay	system	setting	how to read	quantity	result
CC(=O)NCCCC[C@@H]1NC(=O)[C@H](Cc2c[nH]c3c(C)cccc23)NC(=O)[C@H]([C@@H](C)O)NC(=O)[C@H](CC(N)=O)NC(=O)[C@@H](NC(C)=O)C(C)(C)SSC(C)(C)[C@@H](C(=O)N[C@@H](Cc2ccc(OCCN)cc2)C(=O)N[C@@H](Cc2ccc3ccccc3c2)C(=O)NC2(C(=O)N[C@@H](CCC(=O)O)C(=O)N[C@@H](CC(N)=O)C(=O)N[C@@H](Cc3cccnc3)C(=O)N(C)CC(N)=O)CCOCC2)NC1=O		equilibrium dialysis	rat, plasma	0.01 µM		plasma protein binding	50.8 ± 3%
CC[C@H](C)[C@H](NC(=O)[C@H](CCCNC(=N)N)NC(=O)[C@H](CCCCN)NC(=O)[C@H](Cc1ccc(O)cc1)NC(=O)[C@H](CC(=O)O)NC(=O)[C@H](C)NC(=O)CNC(=O)CCOCCOCCOCCNC(=O)CN1CCN(CC(=O)O)CCN(CC(=O)O)CCN(CC(=O)O)CC1)C(=O)N[C@H](C(=O)N[C@@H](CC(C)C)C(=O)N[C@@H](CCCCN)C(=O)N[C@H](C(=O)N[C@@H](CC(N)=O)C(N)=O)C(C)C)[C@@H](C)O [copper-64 labelled]		ex vivo gamma counting	C57BL/6J male mice, B16-F10 tumour, thymus	intravenous, 1.85 MBq, 40 min		tissue uptake	0.66 ± 0.171 %ID/g
N#[11C]c1ccc(-c2csc(NN=C3CCCC3)n2)cc1			C57BL/6 mice, male, heart	intravenous, 3 MBq, 60 min		radioactivity uptake	1.12 ± 0.17 %ID/g
